# Published values from different studies.
# Each numbered part is a random draw from the data of one study; scales do not carry over between parts.

# Block 1 — method: protein binding microarray; molecule type: double-stranded DNA, one strand shown; matrix: in vitro; tested at: not given; relative to: not given; direction: higher = stronger binding
# Target: Histone acetyltransferase KAT6A, both winged helices, GST fusion (KAT6A, Homo sapiens, UniProt Q92794, residues 1-181)
# Setting: 8-mer, flanks averaged, mean of 2 arrays, mostly near background
# Construct (chain): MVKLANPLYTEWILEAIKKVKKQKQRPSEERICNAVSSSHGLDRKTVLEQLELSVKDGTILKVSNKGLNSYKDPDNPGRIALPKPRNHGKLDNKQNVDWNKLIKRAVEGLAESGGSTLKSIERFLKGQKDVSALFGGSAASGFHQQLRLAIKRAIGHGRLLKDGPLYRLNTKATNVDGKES
Sequence,E-score
GAGTGAAC,-0.019
ACCCTGGG,-0.142
AAGAGGCA,-0.161
ACTCAATG,-0.0946
CGGTCTGA,0.161
ACGACCTA,-0.0605
ATGATACC,0.00421
AACTACGG,0.171
GAGGATCC,0.0373
CACCGTAA,0.0797
ATCCAGAC,-0.0602
GCACTGCA,-0.168
CCGGACCC,0.105
CGTACTGC,0.0914
TGCTTGAA,-0.0405
ATTCTAGA,-0.183
CGTTCATA,0.0426
CACAAATA,-0.00223
GCCTGAAC,-0.00482
AGTAGGAC,-0.0868
CTTCTCTC,-0.101
AAGCTTCG,-0.125
CCTGCGAA,-0.145
CACCCCTG,-0.286
CGTGAATA,0.0197

# Block 2 — method: RNA Bind-n-Seq; molecule type: RNA; matrix: in vitro; tested at: 20 nM; setting: 6-mer, flanks averaged, single round; added: 150 mM KCl; relative to: input library; direction: higher = stronger binding
# Target: TAR DNA-binding protein 43, full length, His tag (TARDBP, Homo sapiens, UniProt Q13148, residues 1-414)
Sequence,6-mer enrichment (R)
AAAGUU,0.57
UAUGGU,0.857
AUUUCU,0.573
CUUGCU,0.617
CUCACG,0.663
ACGCUC,0.593
GAUAUG,0.892
CCCUAG,0.679
AUGGUG,1.5
UGGCUA,0.793
GUCGGC,1.39
UCACUU,0.562
GAAAUG,0.949
ACAUCU,0.561
ACGUAC,0.631
AUUCGU,0.562
CGAGUC,0.777
GAUGCA,0.895
GCCGAA,0.928
CAAGUU,0.603
CUUUUC,0.615
UGUUUG,1.04
ACCAAA,0.663
AUCUGC,0.616
CCUCUC,0.569

# Block 3 — method: RNA Bind-n-Seq; molecule type: RNA; matrix: in vitro; tested at: 1 µM; setting: whole 134-nt RNA, ends assumed; added: 150 mM KCl; relative to: input library; direction: higher = stronger binding
# Target: Ras GTPase-activating protein-binding protein 1, RRM domain (G3BP1, Homo sapiens, UniProt Q13283)
# Sequence of UniProt Q13283 (whole entry, looked up): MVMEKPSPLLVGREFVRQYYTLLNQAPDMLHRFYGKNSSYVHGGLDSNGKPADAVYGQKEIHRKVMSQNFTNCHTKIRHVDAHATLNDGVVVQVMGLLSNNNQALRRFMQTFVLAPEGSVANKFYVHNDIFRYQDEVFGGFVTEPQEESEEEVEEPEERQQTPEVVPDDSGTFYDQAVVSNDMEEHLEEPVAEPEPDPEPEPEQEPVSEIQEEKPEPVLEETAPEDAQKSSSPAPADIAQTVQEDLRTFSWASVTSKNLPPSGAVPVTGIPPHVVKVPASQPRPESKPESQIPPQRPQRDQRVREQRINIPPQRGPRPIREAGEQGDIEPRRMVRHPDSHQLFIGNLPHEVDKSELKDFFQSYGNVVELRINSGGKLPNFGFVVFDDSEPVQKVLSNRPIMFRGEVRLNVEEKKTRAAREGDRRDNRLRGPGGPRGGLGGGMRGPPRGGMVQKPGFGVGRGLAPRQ
Sequence,log2 enrichment
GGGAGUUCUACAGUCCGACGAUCCCUGUGCUACACAUCGUAUGUACCGAAUCAAAGUGUGUGUGUGUGAAAUGUGUGUGUGAAAAAAGUAUUAUGUUACGCCGUUCGGAUCUGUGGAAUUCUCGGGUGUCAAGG,-0.129
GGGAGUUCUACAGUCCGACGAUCCCUCAAGUCCUGUGCUACACAUCGUAUGUACCGAAUCGGAAAAAGGAGGAGGAAAGUAUUAUGUUACGCCGUUCGGAUCUGCACUUCCAGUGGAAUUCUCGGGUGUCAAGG,-0.0886
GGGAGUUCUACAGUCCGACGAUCGUCCUGUGCUACACAUCGUAUGUACCGAAUCGGGGUUUUUGGGGUUUUUGGGGAGGGGAAAGUAUUAUGUUACGCCGUUCGGAUCUGCACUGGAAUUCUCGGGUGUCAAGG,0.941
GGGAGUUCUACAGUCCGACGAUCUCCUGUGCUACACAUCGUAUGUACCGAAUCGGGGAAAAAAGGGAAAAAAGGAAAAAAGGAAAGUAUUAUGUUACGCCGUUCGGAUCUGCAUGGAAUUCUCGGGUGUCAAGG,0.104
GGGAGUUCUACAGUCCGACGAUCCUCAAGUCCUGUGCUACACAUCGUAUGUACCGAAUCGGGCCGGCCGGCCGGGGAAAGUAUUAUGUUACGCCGUUCGGAUCUGCACUUCCAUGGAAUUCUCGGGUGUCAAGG,-0.299
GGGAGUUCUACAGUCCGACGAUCACCAAACAGGUGGGCAUCUUUGGGAAGUGGGGCAAGGGGGGGAUAGGGAGGGGGGUAACACUUUGGGAACAGGUGGUCCCAGGUCGUUUCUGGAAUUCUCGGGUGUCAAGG,-0.222
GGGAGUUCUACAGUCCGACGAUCCCUCAAGUCCUGUGCUACACAUCGUAUGUACCGAAUCGGCGGGCGGGGCGGGGAAAGUAUUAUGUUACGCCGUUCGGAUCUGCACUUCCAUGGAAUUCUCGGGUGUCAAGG,-0.154
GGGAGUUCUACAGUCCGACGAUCCUGUGCUACACAUCGUAUGUACCGAAUCGGGUUUUUUUGGGGUUUUUUUGGGUUUUUUUGGAAAGUAUUAUGUUACGCCGUUCGGAUCUGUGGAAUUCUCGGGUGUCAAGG,-0.0594
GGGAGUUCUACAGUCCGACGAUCACCAUGCAGGUGGGCAUCUUUGGGAAGUGGGGCAAGGGGGGGAUAGGGAGGGGGGUAACAGUUUGGGAACAGGUGGUCCCAGGUCGUUUCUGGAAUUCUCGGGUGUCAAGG,0.987
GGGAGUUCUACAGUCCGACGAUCCAAGUCCUGUGCUACACAUCGUAUGUACCGAAUCGGGAAAGGGAGGGAAAAAGGGAAAGUAUUAUGUUACGCCGUUCGGAUCUGCACUUCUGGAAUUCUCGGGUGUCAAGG,0.892

# Block 4 — method: RNA Bind-n-Seq; molecule type: RNA; matrix: in vitro; tested at: 365 nM; relative to: no-protein control; direction: higher = stronger binding
# Target: RNA binding protein fox-1 homolog 2, RRM domain, GST-SBP tag (RBFOX2, Homo sapiens, UniProt O43251-10, residues 100-194)
# Setting: natural RNA segment, single round, ends assumed
# Construct (chain): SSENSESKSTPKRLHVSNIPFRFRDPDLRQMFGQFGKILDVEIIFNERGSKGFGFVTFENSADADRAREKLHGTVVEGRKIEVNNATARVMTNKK
Sequence,RBNS enrichment (R)
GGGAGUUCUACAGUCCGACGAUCAGAGGCCCCUUCAGGUUCCUGGGUGCUCUUCAAUGGCCAAAACUCGAUUUCAUGUCUGGGAGCCUGGACCAGGCUACCCGGGAAGUCAGGACCCUGAUCAUUCACUGUGAUGGAAUUCUCGGGUGCCAA,0.237
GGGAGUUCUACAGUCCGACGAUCUGAUCUUAAUUGUGGAGGUGCAACUUGCCAGGAGGGAAGAAACAAUCUAGCACUUGCAGGCAUUCCAGGUAGAAGAGCUUUGCCCGUGCUCCAGCUAGCCUACACUGAUCUGGAAUUCUCGGGUGCCAA,0.543
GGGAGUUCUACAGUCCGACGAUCGCAGUUGGGUCAGAGCAUGACCUUUAAGAUAGCCUCUCUCAGCUAACAUAUUUAUGAAGAUGAGGCCUGGUGACCCAGCAGGUUCAUUGGAUACAUAAGAAAUGAGAAUUUGGAAUUCUCGGGUGCCAA,6.81
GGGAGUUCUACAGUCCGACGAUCUGGGAAUGGGAGAGGGGCAAGCUGGCCAUACAGGGGACAUGGUCAUUCUCCGAGCCAGCUGUGUUUUACACAAAGCUGUACAAUUGUUAUUGGUUGAGGUCACAAAGAUGUGGAAUUCUCGGGUGCCAA,1.3
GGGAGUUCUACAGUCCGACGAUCUAUCACACCAUCGCUGGCCCCUUUGGGCCCUGCAUGUAGUGUGGGAGGCUCCUGUUAGCUCCUCACUGUGGUAAAUGCCACACACCUUUAAGUAGAUAAGCAGACGAUAGUGGAAUUCUCGGGUGCCAA,0.431
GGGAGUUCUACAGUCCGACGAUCAGAGUGGCCCGAGGCCGUCCCUCACCGGGCAUGUUCCCUCUGGCUGCCCACUCCCUCAGGGCCCACAUGUCCUGCCACUCGCCACUCUGAGCACGAGUUCACCUUCCAGAUGGAAUUCUCGGGUGCCAA,0.547
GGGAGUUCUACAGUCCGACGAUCGGAGCUAGAACCAGGGAGGUCCUGAGUGAGGAAGGCAUGACCUCUGGGCUCUCUAGGUGGCCCUGGUCUUGCCCCAUCCAUCCCACCUGCCACUACCUUGGGUGUCCUUAUGGAAUUCUCGGGUGCCAA,0.286
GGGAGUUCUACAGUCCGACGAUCUUUAAAAUCUCUGGCUUCAAAGUUUCUUGGGGAAAGGUCGGUUUACCUCACAUUUUUUGUUUCCAUUAGUAAUAUUCUAGGUACCUCACAAAAUGUAUUAUGGUGCCAUGUGGAAUUCUCGGGUGCCAA,0.296
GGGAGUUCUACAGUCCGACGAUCAUCCCCUGCUUCCUGUUCCUUCAGCCUCCCUUCCCUUUCCUUCCUGGAUCUCUGAUUAUCUUGUGAUCAUAGCACCUGCUGUCGGCACACUCCCGUGAGUCCUGUGGUCAUGGAAUUCUCGGGUGCCAA,0.909
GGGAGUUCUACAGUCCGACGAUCCUCAGCAGAACUAUAGCCAAUGUUUUGUUUUGUUUUCCUGAAUGCUAUCUUAUUUUUUUUCUUAUAGAAUUAAUCACAGGUCUUCUUAUCAUUGUGAAAACUCAUGUUGUUGGAAUUCUCGGGUGCCAA,0.796
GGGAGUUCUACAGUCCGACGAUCUAGGAUGGAAUCUUGAAACAUAUUCUGACCUCCAAUGAAAAGAUAUGGGCAUACAAGGUGAGUUGUACGUAGAACUAAAUCCUUGAGUGUUUCCCACCUGACUCUACUAUUGGAAUUCUCGGGUGCCAA,0.305
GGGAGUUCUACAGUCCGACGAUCUAAAUAUCUCUCAGGAAUGGAAGUGUCAAUGAGUAGUCAGUAUUACUAUACUCUUGUUUGUAAGAAUAUAUUUUCCUUAUUGUUGGAGUCUCCAGAGGUUAUUGGAAGGAUGGAAUUCUCGGGUGCCAA,0.524

# Repeated from above (block 2):
Sequence,6-mer enrichment (R)
ACAUCU,0.561
UGGCUA,0.793
AUUCGU,0.562
AUGGUG,1.5
AUCUGC,0.616
CUUGCU,0.617
CGAGUC,0.777
CAAGUU,0.603
ACGCUC,0.593
GAUGCA,0.895
